{"data": "Measured values from different studies", "lecA": "PA-I galactophilic lectin (lecA, Pseudomonas aeruginosa, UniProt Q05097)", "note": "± gives the spread as reported.", "sequence of UniProt P53350 (whole entry, looked up)": "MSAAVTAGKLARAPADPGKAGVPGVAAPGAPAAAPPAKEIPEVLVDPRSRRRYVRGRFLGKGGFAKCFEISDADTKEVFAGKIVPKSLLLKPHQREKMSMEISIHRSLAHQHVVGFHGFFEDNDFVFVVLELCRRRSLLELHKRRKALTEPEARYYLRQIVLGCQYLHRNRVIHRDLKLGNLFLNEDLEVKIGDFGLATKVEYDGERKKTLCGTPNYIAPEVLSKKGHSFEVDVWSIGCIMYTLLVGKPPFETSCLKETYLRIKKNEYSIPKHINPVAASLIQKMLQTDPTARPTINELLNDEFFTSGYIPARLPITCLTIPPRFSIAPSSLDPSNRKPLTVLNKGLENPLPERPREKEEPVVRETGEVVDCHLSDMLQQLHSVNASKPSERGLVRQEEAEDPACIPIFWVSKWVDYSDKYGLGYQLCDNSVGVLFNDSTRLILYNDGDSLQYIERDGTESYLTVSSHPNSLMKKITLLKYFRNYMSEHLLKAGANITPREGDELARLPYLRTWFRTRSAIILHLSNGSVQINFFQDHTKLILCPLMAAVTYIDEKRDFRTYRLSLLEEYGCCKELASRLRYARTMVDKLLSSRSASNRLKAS", "sequence of UniProt Q9NZC7 (whole entry, looked up)": "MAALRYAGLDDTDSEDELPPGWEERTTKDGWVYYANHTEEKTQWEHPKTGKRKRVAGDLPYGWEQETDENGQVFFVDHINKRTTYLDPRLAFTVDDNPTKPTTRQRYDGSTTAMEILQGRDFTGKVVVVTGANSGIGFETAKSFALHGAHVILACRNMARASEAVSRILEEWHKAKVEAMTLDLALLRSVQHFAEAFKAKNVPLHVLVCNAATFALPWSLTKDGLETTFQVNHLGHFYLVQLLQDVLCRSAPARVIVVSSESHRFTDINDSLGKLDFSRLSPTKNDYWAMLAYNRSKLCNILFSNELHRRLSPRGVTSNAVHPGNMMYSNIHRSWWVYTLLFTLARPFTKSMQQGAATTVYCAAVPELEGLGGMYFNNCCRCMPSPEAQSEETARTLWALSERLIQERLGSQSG", "sequence of UniProt O66465 (whole entry, looked up)": "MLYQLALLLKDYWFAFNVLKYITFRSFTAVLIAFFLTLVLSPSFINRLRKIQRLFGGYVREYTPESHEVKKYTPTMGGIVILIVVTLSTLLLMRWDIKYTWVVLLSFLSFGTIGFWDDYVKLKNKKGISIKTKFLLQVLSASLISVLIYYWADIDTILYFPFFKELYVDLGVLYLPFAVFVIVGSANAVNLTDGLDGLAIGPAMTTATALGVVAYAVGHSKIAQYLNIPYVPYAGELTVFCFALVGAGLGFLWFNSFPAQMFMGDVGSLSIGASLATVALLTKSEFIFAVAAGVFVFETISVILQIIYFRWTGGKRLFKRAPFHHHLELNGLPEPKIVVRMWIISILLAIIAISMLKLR", "sequence of UniProt P05067 (whole entry, unmodified, looked up)": "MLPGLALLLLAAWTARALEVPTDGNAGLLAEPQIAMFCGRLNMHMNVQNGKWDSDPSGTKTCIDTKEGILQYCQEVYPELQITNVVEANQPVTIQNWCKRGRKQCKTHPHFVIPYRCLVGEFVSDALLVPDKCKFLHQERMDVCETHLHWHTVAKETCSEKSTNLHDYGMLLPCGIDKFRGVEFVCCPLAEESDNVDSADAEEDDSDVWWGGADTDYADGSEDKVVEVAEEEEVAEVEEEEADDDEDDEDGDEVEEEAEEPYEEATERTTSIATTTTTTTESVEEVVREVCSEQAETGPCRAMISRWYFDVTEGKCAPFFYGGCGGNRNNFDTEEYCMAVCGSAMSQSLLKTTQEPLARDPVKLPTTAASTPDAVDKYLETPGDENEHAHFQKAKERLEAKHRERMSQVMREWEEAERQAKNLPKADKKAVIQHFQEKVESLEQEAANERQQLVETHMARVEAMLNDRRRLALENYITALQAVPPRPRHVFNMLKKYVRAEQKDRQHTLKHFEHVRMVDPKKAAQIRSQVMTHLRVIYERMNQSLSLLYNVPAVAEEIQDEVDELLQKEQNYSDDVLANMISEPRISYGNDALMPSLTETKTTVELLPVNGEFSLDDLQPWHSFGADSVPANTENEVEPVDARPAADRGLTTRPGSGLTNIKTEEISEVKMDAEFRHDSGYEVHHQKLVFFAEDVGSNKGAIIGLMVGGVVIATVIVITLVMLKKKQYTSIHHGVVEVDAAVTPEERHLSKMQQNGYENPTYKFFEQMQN", "sequence of UniProt Q9NQG5 (whole entry, looked up)": "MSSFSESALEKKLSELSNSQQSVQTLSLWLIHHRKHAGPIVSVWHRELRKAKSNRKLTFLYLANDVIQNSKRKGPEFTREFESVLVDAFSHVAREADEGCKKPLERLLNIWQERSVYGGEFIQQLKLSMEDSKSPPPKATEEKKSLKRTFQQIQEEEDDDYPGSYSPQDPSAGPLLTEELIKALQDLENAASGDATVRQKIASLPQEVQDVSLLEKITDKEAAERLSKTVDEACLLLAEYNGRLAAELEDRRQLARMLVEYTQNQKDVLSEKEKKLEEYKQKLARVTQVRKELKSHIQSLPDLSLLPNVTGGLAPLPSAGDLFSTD", "sequence of UniProt Q9UEF7 (whole entry, looked up)": "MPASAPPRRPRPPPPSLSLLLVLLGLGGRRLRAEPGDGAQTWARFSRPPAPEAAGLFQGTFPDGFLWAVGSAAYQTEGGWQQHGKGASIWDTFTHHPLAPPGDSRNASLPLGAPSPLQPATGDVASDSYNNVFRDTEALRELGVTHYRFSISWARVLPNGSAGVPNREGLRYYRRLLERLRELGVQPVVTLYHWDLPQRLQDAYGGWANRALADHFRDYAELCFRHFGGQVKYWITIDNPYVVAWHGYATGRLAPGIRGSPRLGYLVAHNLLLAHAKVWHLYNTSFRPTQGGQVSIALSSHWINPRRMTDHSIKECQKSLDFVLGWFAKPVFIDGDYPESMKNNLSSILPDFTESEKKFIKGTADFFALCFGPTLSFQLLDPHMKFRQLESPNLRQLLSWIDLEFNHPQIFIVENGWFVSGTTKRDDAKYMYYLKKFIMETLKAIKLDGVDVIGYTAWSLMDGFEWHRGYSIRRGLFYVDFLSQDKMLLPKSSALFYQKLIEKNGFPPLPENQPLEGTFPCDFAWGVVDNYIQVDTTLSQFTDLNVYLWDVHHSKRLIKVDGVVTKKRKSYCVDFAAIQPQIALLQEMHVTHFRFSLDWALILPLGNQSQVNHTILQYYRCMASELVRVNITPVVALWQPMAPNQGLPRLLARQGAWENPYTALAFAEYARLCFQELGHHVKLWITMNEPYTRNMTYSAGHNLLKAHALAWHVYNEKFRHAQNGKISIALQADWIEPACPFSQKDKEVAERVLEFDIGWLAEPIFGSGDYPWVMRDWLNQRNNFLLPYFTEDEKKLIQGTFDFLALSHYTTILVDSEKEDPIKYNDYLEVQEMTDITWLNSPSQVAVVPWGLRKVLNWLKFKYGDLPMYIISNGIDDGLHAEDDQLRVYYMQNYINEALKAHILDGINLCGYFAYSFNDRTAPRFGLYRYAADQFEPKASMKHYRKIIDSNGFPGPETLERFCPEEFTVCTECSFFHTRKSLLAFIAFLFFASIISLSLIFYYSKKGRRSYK", "sequence of UniProt O49687 (whole entry, looked up)": "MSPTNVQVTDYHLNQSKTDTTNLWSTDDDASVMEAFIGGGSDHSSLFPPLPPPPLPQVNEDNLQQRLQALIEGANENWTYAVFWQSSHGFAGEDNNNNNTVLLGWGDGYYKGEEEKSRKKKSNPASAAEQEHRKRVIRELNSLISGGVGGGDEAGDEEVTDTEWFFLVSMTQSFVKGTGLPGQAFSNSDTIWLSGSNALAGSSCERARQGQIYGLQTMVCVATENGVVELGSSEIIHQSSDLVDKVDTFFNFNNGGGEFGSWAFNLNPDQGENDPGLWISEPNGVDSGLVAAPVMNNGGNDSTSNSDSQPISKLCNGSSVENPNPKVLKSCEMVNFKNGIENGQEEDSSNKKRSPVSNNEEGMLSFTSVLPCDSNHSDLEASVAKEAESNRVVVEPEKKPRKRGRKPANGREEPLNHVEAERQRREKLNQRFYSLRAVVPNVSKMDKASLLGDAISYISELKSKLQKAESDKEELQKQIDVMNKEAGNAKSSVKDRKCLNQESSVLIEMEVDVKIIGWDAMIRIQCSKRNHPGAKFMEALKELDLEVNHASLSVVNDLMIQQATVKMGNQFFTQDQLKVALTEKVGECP", "sequence of UniProt P63104 (whole entry, looked up)": "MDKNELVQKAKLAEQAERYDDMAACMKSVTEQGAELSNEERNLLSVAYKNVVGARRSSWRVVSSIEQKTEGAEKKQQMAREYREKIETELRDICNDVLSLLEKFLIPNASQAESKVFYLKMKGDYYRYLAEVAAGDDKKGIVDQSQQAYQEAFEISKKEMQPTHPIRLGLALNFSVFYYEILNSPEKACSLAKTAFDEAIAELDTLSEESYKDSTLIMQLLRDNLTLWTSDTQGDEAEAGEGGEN"}
{"Compound": "NCC1OC(OC(CO)C2CC(O)C(n3ccc(=O)[nH]c3=O)O2)C(O)C1O (centres unmarked)", "target": "Phospho-N-acetylmuramoyl-pentapeptide-transferase (mraY, Aquifex aeolicus, UniProt O66465)", "test": "binding, ITC", "Kd [µM]": 0.283}
{"Compound": "CCCCCCCC(=O)N[C@@H](CCCCNS(=O)(=O)c1cccc2c(N(C)C)cccc12)C(=O)N[C@H](C(=O)N[C@@H](CCN)C(=O)N[C@H]1CCNC(=O)[C@H]([C@@H](C)O)NC(=O)[C@H](CCN)NC(=O)[C@H](CCN)NC(=O)[C@H](CC(C)C)NC(=O)[C@@H](Cc2ccccc2)NC(=O)[C@H](CCN)NC1=O)[C@@H](C)O", "target": "Escherichia coli lipopolysaccharide", "test": "isothermal titration calorimetry", "setting": "pH 7.0, 37 °C, first binding site set", "Kd [µM]": "192 ± 15"}
{"Compound": "CC[C@H](C)[C@H](NC(=O)[C@H](Cc1c[nH]cn1)NC(=O)[C@H](CCCCNC(=O)[C@@H](NC(=O)[C@H](CCCCN)NC(=O)CSC[C@H](NC(=O)[C@H](Cc1ccccc1)NC(=O)[C@H](CCCCNC(=O)[C@H](CC(C)C)NC(=O)[C@@H]1CCCN1C(=O)[C@H](CCCCN)NC(=O)c1ccc(O[C@@H]2O[C@H](CO)[C@H](O)[C@H](O)[C@H]2O)cc1)NC(=O)[C@H](CC(C)C)NC(=O)[C@@H]1CCCN1C(=O)[C@H](CCCCN)NC(=O)C[C@@H]1O[C@@H](C)[C@@H](O)[C@@H](O)[C@@H]1O)C(N)=O)[C@@H](C)CC)NC(=O)[C@@H](NC(=O)[C@H](CCCCN)NC(=O)CSC[C@H](NC(=O)[C@H](Cc1ccccc1)NC(=O)[C@H](CCCCNC(=O)[C@H](CC(C)C)NC(=O)[C@@H]1CCCN1C(=O)[C@H](CCCCN)NC(=O)c1ccc(O[C@@H]2O[C@H](CO)[C@H](O)[C@H](O)[C@H]2O)cc1)NC(=O)[C@H](CC(C)C)NC(=O)[C@@H]1CCCN1C(=O)[C@H](CCCCN)NC(=O)C[C@@H]1O[C@@H](C)[C@@H](O)[C@@H](O)[C@@H]1O)C(N)=O)[C@@H](C)CC)C(N)=O", "target": "lecA", "test": "binding, ITC", "setting": "pH 7.5", "Kd [µM]": 0.075}
{"Compound": "CC[C@@H]1C(=O)N(C)c2cnc(Nc3ccc(C(=O)NCCCC[C@H](NC(=O)[C@@H](NC(=O)[C@H](CO)NC(=O)[C@H](Cc4cncn4CCCCCCCCc4ccccc4)NC(=O)[C@H](CC(C)C)NC(=O)[C@@H]4CCCN4C(C)=O)[C@@H](C)OP(=O)(O)O)C(N)=O)cc3OC)nc2N1C1CCCC1", "target": "Serine/threonine-protein kinase PLK1 (PLK1, Homo sapiens, UniProt P53350)", "test": "binding", "Kd [µM]": 0.019}
{"Compound": "Nc1ncnc2c1ncn2[C@@H]1O[C@H](COP(=O)(O)OP(=O)(O)OP(=O)(O)O)[C@@H](O)[C@H]1O", "target": "dnaA (Escherichia coli, UniProt P03004, A184V)", "test": "binding, radiometric", "Kd [µM]": 2.97}
{"Compound": "CC(C)C[C@H](NC(=O)[C@@H]1CCCN1C(=O)[C@H](CC(=O)O)NC(=O)[C@H](CO)NC(=O)[C@H](C)NC(=O)c1cc(-c2ccccc2)nc2ccccc12)C(=O)NCC(=O)N[C@H](C(=O)N[C@H](C(=O)N[C@@H](CCCNC(=N)N)C(=O)NCC(=O)N[C@@H](CCCNC(=N)N)C(=O)N[C@@H](C)C(=O)N[C@@H](CCCNC(=N)N)C(=O)N[C@H](CCCNC(=O)CCOCCOCCOCCOCCNC(=O)CCCC[C@@H]1SC[C@@H]2NC(=O)N[C@@H]21)C(N)=O)C(C)C)C(C)C", "target": "Klotho (Homo sapiens, UniProt Q9UEF7)", "test": "binding, biolayer interferometry", "Kd [µM]": "0.0015 ± 0.0006"}
{"Compound": "CC(C)C[C@H](NC(=O)[C@@H](N)Cc1ccccc1)C(=O)O", "target": "Amyloid-beta precursor protein, amyloid-beta 1-40 V40A (APP, Homo sapiens, UniProt P05067, V711A)", "setting": "concentration not given", "Kd [µM]": "17.2 ± 8.5"}
{"Compound": "CC[C@H](C)[C@H](NC(=O)[C@@H](NC(=O)[C@H](Cc1c[nH]c2ccccc12)NC(=O)[C@H](CCC(=O)O)NC(=O)[C@H](CO)NC(=S)Nc1ccc2c(c1)C(=O)OC21c2ccc(O)cc2Oc2cc(O)ccc21)C(C)C)C(=O)N[C@@H](C)C(=O)N[C@H](C(=O)N1CCC[C@H]1C(=O)N[C@@H](Cc1ccccc1)C(=O)N[C@@H](CC(C)C)C(=O)N[C@H](C(=O)N[C@@H](CC(N)=O)C(=O)N[C@@H](CC(C)C)C(=O)O)[C@@H](C)O)[C@@H](C)CC", "target": "Rgg transcriptional regulator (Streptococcus pneumoniae, UniProt A0A0E7KI02)", "test": "binder, fluorescence polarization", "setting": "20 min, pH 7.4, 20 °C, fluorescein-labelled peptide", "Kd [µM]": "4 ± 0.8"}
{"Compound": "CC(C)C[C@H](NC(=O)[C@@H](NC(=O)[C@@H](NC(=O)CN)[C@@H](C)O)C(C)C)C(=O)N1CCC[C@H]1C(=O)N[C@@H](C)C(=O)N[C@@H](C)C(=O)N1CCC[C@H]1C(=O)N[C@@H](Cc1ccc(O)cc1)C(=O)N[C@@H](CCCNC(=N)N)C(=O)N[C@@H](Cc1c[nH]cn1)C(=O)N[C@@H](CCCNC(=N)N)C(=O)N[C@@H](CC(N)=O)C(=O)NCC(=O)NCC(=O)NCC(=O)NCC(=O)NCC(=O)N[C@H](C(=O)N[C@H](C(=O)N[C@@H](CC(C)C)C(=O)N1CCC[C@H]1C(=O)N1CCC[C@H]1C(=O)N1CCC[C@H]1C(=O)N1CCC[C@H]1C(=O)N[C@@H](Cc1ccc(O)cc1)C(=O)N[C@@H](CCCNC(=N)N)C(=O)N[C@@H](Cc1c[nH]cn1)C(=O)N[C@@H](CCCNC(=N)N)C(=O)N[C@@H](CC(N)=O)C(=O)O)C(C)C)[C@@H](C)O", "target": "WW domain-containing oxidoreductase, WW1-WW2 tandem domains (WWOX, Homo sapiens, UniProt Q9NZC7)", "test": "NMR titration", "Kd [µM]": "10 to 20"}
{"Compound": "CC(C)C[C@H](NC(=O)[C@H](CCCNC(=N)N)NC(=O)[C@H](CCC(=O)O)NC(=O)[C@H](CCCCN)NC(=O)[C@H](CCCNC(=N)N)NC(=O)[C@H](CCCCN)NC(=O)[C@]1(C)CCCC=CCCC[C@](C)(NC(=O)[C@H](CC(C)C)NC(=O)[C@H](CO)NC(=O)[C@]2(C)CCCC=CCCC[C@](C)(NC(=O)[C@@H]3CCCN3C(=O)[C@@H](NC(=O)[C@H](CO)NC(=O)c3ccc4c(c3)C(=O)OC43c4ccc(N(C)C)cc4Oc4cc(N(C)C)ccc43)C(C)C)C(=O)N[C@@H](C)C(=O)N[C@@H](CCCNC(=N)N)C(=O)N[C@@H](CCCCN)C(=O)N2)C(=O)N[C@@H](CCCNC(=N)N)C(=O)N[C@@H](Cc2ccccc2)C(=O)N[C@@H](CC(C)C)C(=O)N1)C(=O)O", "target": "Transcription factor MYC4 (MYC4, Arabidopsis thaliana, UniProt O49687)", "test": "binding, fluorescence anisotropy", "setting": "pH 8.0, MYC4 residues 55-253", "Kd [µM]": "0.88 ± 0.2"}
{"Compound": "CC[C@H](C)[C@H](NC(=O)[C@H](Cc1c[nH]cn1)NC(=O)[C@H](CCCCNC(=O)[C@@H](NC(=O)[C@H](CCCCN)NC(=O)[C@H](Cc1ccccc1)NC(=O)[C@H](CCCCNC(=O)[C@H](CC(C)C)NC(=O)[C@@H]1CCCN1C(=O)[C@H](CCCCN)NC(=O)c1ccc(O[C@@H]2O[C@H](CO)[C@H](O)[C@H](O)[C@H]2O)cc1)NC(=O)[C@H](CC(C)C)NC(=O)[C@@H]1CCCN1C(=O)[C@H](CCCCN)NC(=O)c1ccc(O[C@@H]2O[C@H](CO)[C@H](O)[C@H](O)[C@H]2O)cc1)[C@@H](C)CC)NC(=O)[C@@H](NC(=O)[C@H](CCCCN)NC(=O)[C@H](Cc1ccccc1)NC(=O)[C@H](CCCCNC(=O)[C@H](CC(C)C)NC(=O)[C@@H]1CCCN1C(=O)[C@H](CCCCN)NC(=O)c1ccc(O[C@@H]2O[C@H](CO)[C@H](O)[C@H](O)[C@H]2O)cc1)NC(=O)[C@H](CC(C)C)NC(=O)[C@@H]1CCCN1C(=O)[C@H](CCCCN)NC(=O)c1ccc(O[C@@H]2O[C@H](CO)[C@H](O)[C@H](O)[C@H]2O)cc1)[C@@H](C)CC)C(N)=O", "target": "lecA", "test": "isothermal titration calorimetry", "setting": "pH 7.5, 25 °C, added: 25 mM CaCl2", "Kd [µM]": "0.1 ± 0.01"}
{"Compound": "O=C(/C=C/c1ccc(F)cc1)c1ccccc1OCCSc1nnc(-c2ccccc2)c(-c2ccccc2)n1", "target": "CP (Tobacco mosaic virus, UniProt P69687)", "test": "binding, MST", "Kd [µM]": 0.275}
{"Compound": "C[C@@H](O)[C@H](NC(=O)[C@@H]1CCCN1C(=O)[C@H](COP(=O)(O)O)NC(=O)[C@H](Cc1ccc(O)cc1)NC(=O)[C@H](CO)NC(=O)[C@@H]1CCCN1C(=O)[C@H](CO)NC(=O)[C@@H](NC(=O)[C@@H]1CCCN1C(=O)[C@H](CO)NC(=O)[C@H](Cc1ccc(O)cc1)NC(=O)[C@H](CO)NC(=O)[C@@H]1CCCN1)[C@@H](C)O)C(=O)N[C@@H](CO)C(=O)N1CCC[C@H]1C(=O)N[C@@H](CO)C(=O)O", "target": "Regulation of nuclear pre-mRNA domain-containing protein 1B, CID domain (RPRD1B, Homo sapiens, UniProt Q9NQG5)", "test": "binding, fluorescence polarization", "setting": "pH 8.0, room temperature", "Kd [µM]": "22.5 ± 3"}
{"Compound": "CC(=O)N[C@@H](CCCNC(=N)N)C(=O)N[C@H](C(=O)N1CCC[C@H]1C(=O)N[C@@H](COP(=O)(O)O)C(=O)N[C@@H](CC(C)C)C(=O)N1CCC[C@H]1C(=O)N[C@H](C(=O)N1CCC[C@H]1C(c1ccccc1)c1ccccc1)C(C)C)[C@@H](C)O", "target": "14-3-3 protein zeta/delta (YWHAZ, Homo sapiens, UniProt P63104)", "test": "binding, ITC", "Kd [µM]": 2.2}
{"note": "A few entries again:"}
{"Compound": "CC[C@H](C)[C@H](NC(=O)[C@H](Cc1c[nH]cn1)NC(=O)[C@H](CCCCNC(=O)[C@@H](NC(=O)[C@H](CCCCN)NC(=O)CSC[C@H](NC(=O)[C@H](Cc1ccccc1)NC(=O)[C@H](CCCCNC(=O)[C@H](CC(C)C)NC(=O)[C@@H]1CCCN1C(=O)[C@H](CCCCN)NC(=O)c1ccc(O[C@@H]2O[C@H](CO)[C@H](O)[C@H](O)[C@H]2O)cc1)NC(=O)[C@H](CC(C)C)NC(=O)[C@@H]1CCCN1C(=O)[C@H](CCCCN)NC(=O)C[C@@H]1O[C@@H](C)[C@@H](O)[C@@H](O)[C@@H]1O)C(N)=O)[C@@H](C)CC)NC(=O)[C@@H](NC(=O)[C@H](CCCCN)NC(=O)CSC[C@H](NC(=O)[C@H](Cc1ccccc1)NC(=O)[C@H](CCCCNC(=O)[C@H](CC(C)C)NC(=O)[C@@H]1CCCN1C(=O)[C@H](CCCCN)NC(=O)c1ccc(O[C@@H]2O[C@H](CO)[C@H](O)[C@H](O)[C@H]2O)cc1)NC(=O)[C@H](CC(C)C)NC(=O)[C@@H]1CCCN1C(=O)[C@H](CCCCN)NC(=O)C[C@@H]1O[C@@H](C)[C@@H](O)[C@@H](O)[C@@H]1O)C(N)=O)[C@@H](C)CC)C(N)=O", "target": "lecA", "test": "binding, ITC", "setting": "pH 7.5", "Kd [µM]": 0.075}
{"Compound": "CC[C@@H]1C(=O)N(C)c2cnc(Nc3ccc(C(=O)NCCCC[C@H](NC(=O)[C@@H](NC(=O)[C@H](CO)NC(=O)[C@H](Cc4cncn4CCCCCCCCc4ccccc4)NC(=O)[C@H](CC(C)C)NC(=O)[C@@H]4CCCN4C(C)=O)[C@@H](C)OP(=O)(O)O)C(N)=O)cc3OC)nc2N1C1CCCC1", "target": "Serine/threonine-protein kinase PLK1 (PLK1, Homo sapiens, UniProt P53350)", "test": "binding", "Kd [µM]": 0.019}
